Published values from different studies.
Every numbered part comes from another study and shows a few of its results, in no order.

Block 1
Target: RNA binding protein fox-1 homolog 2, RRM domain, GST-SBP tag (RBFOX2, Homo sapiens, UniProt O43251-10, residues 100-194)
Method: RNA Bind-n-Seq
Molecule type: RNA
Sample: in vitro
Tested at: 365 nM
Notes: natural RNA segment, single round, ends assumed
Relative to: no-protein control
Reading: higher = stronger binding
Shared flanks, not repeated: GGGAGUUCUACAGUCCGACGAUC … UGGAAUUCUCGGGUGCCAA
Construct (chain): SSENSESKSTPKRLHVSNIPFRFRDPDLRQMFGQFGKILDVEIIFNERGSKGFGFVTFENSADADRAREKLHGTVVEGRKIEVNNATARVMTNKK
Oligonucleotide | RBNS enrichment (R)
UACCUAACAACAGCCAUUUCAGGCCCUCAAUAGUGCUUGCUUCAUCUUAGCCUGGCCCAGCCUGGGCUGCCUGGACAGGCUCUCCUGGCACAUUCCUGUACCCUUUAAAU | 0.515
AUGAAAACAGGAAAAAAAUAAAACAAAUUUAGAAAACACAGCUCAUUAAAAUAAAAUUGUUGGAUUUAUUUCCCCAGGUCUUCAGUGUUGAUGUAAAUGUGUUUCUGUAG | 1.85
UUUCUUCCUUUCGCAGCCAGUCAGUCUUUCAAACUAUUGACAGUAAGAUAAUUCUCACGUUCACACCUGGUGGCAGGCUUCACUGUAGGGACGGACAUUGCAGUUACACC | 0.316
UUAGAAAGCCCGGUGUUUUUCUGUGAUAUUAGAUGUCCUCCGAGCACAGCCCACUUGGAUUUGUUUGUUUGGUUUUGCCUUGAGACUGGGUCUCACUAUACAGAGCAGCC | 1.3
UGAUUGAUUAGAAUUGUGCUCUUGAUGGCUGGGAAUUUAGAAAUUUUAUUUUAAGAGUUAUUUCAUUUUCAUCCUAAGAGUGAUGGGAGAGAAAUGUCCAAAAGAGAUCU | 0.415
CAUCAUCUCUUGCUGUGGAAACGGAAACAUAGCAGUUUUCACAUUUCCUGCAUCUCUCAGACAGGACUCACCAUCUCUGCCUCCCAUGAGGCUUACAGAGUUCAAUGUUG | 0.254
AUCCAAUUUUCUCUGCUAGGGGUUAUCAUUAGCAAUUGACAUGCUAAAGGUUUUGGAGCCCACCUAGGGGUAGGUGCAGCUUUAUUGGCUUUUCUGUGGAUUCUCUCAGU | 0.755

Block 2
Target: RING finger protein unkempt homolog, zinc fingers 1-6, GST-SBP tag (UNK, Homo sapiens, UniProt Q9C0B0, residues 30-357)
Sequence of UniProt Q9C0B0 (30-357, looked up): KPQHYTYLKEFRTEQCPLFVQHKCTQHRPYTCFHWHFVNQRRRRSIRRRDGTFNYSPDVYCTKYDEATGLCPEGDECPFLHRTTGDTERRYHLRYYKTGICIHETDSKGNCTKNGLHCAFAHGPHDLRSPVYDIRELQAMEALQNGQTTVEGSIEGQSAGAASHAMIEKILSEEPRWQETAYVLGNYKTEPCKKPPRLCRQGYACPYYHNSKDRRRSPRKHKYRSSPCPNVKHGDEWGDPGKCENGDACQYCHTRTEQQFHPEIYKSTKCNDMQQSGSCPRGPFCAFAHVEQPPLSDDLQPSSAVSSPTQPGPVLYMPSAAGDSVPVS
Method: RNA Bind-n-Seq
Molecule type: RNA
Sample: in vitro
Tested at: not given
Notes: RNA with constant flanks, ends assumed
Relative to: input RNA pool
Reading: higher = stronger binding
Oligonucleotide | bound/input enrichment
GGGAGUUCUACAGUCCGACGAUCAGCUGGGCAGGGGGUAACUUUACUGAUUUGGGGGUGGUUUUUAGUUUAAUUUUUCUUUUCCCGCUUCCCAUCGACGGUCAGUGCGCACGUUGUAAUCAGCUGAGGCCAUGUCAGGAGACGCAACAGAGGAUUGAGCAUCA | 2.03 ratio
GGGAGUUCUACAGUCCGACGAUCCUCAGCAAUGUGUCUUCCACGGGCAGCAUCGACAUGGUGGACUCACCACAGCUUGCCACACCCGCCGAUGAAGUGUCUGCUUCCUUGGCCAAGCAGGGUUUGUGAUCAGGCUCCCAGGGCCAACAGAGGAUUGAGCAUCA | 0.0807 ratio
GGGAGUUCUACAGUCCGACGAUCCUGUGAGCGUCUACAGACAGCUCACCAUUUUUGUCCUGUAUCUGUAAACACUUUUUGUUCUCCGUCUUUUUCUUGUAAAAUUGAUGUUCUUUAAAAUCGUUAAUGUAUAACAGGGCUUAUCAACAGAGGAUUGAGCAUCA | 0.194 ratio
GGGAGUUCUACAGUCCGACGAUCACUGGGUUUGGAUUAGGAAUUGUUUUCUCCCUCACCUUCUUUAAGAGAAGAAUGUGGCCAUCCGCCUUUGGUUCUGGCGUGGGAUUGGGAAUGGCCUACUCCAACUGUCAGCAUGACUUUCAACAGAGGAUUGAGCAUCA | 0.305 ratio

Block 3
Target: Interferon regulatory factor 5, full length, phosphomimetic (IRF5, Homo sapiens, UniProt Q13568-2, residues 1-514, S451D/S453D/S456D/S462D)
Method: protein-binding microarray
Molecule type: double-stranded DNA, one strand shown
Sample: in vitro
Tested at: 940 nM top
Notes: 60-bp whole probe
Together with: salmon DNA 0.4 mg/ml
Relative to: random background probes
Reading: higher = stronger binding
Shared flanks, not repeated: GCCTAGCAC … GTCTTGATTCGCTTGACGCTGCTG
Oligonucleotide | fitted relative affinity [z-score]
TTAGATATCAGTATCGATTGGTGCTAG | 4.39
GACCGTCTCGGTTTCGGGACGTGCTAG | 6.43
CATATTCTCTTCTTGCATCTGTGCTAG | 1.88
GACGCTTTCCTTTCCCTGACGTGCTAG | 1.2
TCAAGAATCACAACTAGGACTGTGCTA | -0.267

Other studies, line by line
Molecule | target | assay | test system | conditions | scale | quantity | result
PhoQ, residues 284 288 289 292 302 303 GNNTDL | PhoP, residues 12 14 15 18 19 GQAIL (Escherichia coli, UniProt P23836) | Sort-seq, refers to: YFP reporter | E. coli | PhoQ-PhoP variant library, together with: 10 µM Mg2+ | relative to: high Mg2+ state, higher = stronger signaling | fold induction | 4.01

For quick reference, copied from above (block 1):
Oligonucleotide | RBNS enrichment (R)
AUGAAAACAGGAAAAAAAUAAAACAAAUUUAGAAAACACAGCUCAUUAAAAUAAAAUUGUUGGAUUUAUUUCCCCAGGUCUUCAGUGUUGAUGUAAAUGUGUUUCUGUAG | 1.85
CAUCAUCUCUUGCUGUGGAAACGGAAACAUAGCAGUUUUCACAUUUCCUGCAUCUCUCAGACAGGACUCACCAUCUCUGCCUCCCAUGAGGCUUACAGAGUUCAAUGUUG | 0.254
UGAUUGAUUAGAAUUGUGCUCUUGAUGGCUGGGAAUUUAGAAAUUUUAUUUUAAGAGUUAUUUCAUUUUCAUCCUAAGAGUGAUGGGAGAGAAAUGUCCAAAAGAGAUCU | 0.415
